Assay results from different studies.
Parts stem from different laboratories: compare values within a part only. “And” joins repeats or separate records; there may be more than shown.

Sample 1 — read-out: enzyme activity; mode: inhibitor; concentration: 10 µM; measurement: inhibition
Target: Calcium/calmodulin-dependent protein kinase type II subunit alpha (CAMK2A, Homo sapiens, UniProt Q9UQM7)
Sequence of UniProt Q9UQM7 (whole entry, looked up): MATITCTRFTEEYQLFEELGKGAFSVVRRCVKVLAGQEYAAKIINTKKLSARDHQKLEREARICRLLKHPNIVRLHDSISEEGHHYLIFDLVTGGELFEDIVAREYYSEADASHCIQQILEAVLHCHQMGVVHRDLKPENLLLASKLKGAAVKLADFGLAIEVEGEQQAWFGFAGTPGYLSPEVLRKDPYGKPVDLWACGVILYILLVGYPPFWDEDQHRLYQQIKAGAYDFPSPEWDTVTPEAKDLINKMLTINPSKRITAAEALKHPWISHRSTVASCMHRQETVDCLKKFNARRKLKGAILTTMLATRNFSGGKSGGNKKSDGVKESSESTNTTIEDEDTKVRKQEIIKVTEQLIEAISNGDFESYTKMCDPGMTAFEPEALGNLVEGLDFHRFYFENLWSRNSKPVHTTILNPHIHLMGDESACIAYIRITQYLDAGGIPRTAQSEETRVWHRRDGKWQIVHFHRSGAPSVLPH
CC(=O)Nc1ccc(CC(=O)O)cc1: -3%
O=C(NC[C@H]1CN(c2ccc(N3CCOCC3=O)cc2)C(=O)O1)c1ccc(Cl)s1: -2%
O=C1O[C@H]([C@@H](O)CO)C(O)=C1O[C@@H]1O[C@H](CO)[C@@H](O)[C@H](O)[C@H]1O: -5%
COC(=O)C1=CO[C@@H](O[C@@H]2O[C@H](CO)[C@@H](O)[C@H](O)[C@H]2O)[C@H]2[C@@H]1C=C[C@@]2(O)CO: 7%
CC(=O)O[C@H]1CC[C@@]2(C)C(=CC[C@@H]3[C@@H]2CC[C@]2(C)C(c4cccnc4)=CC[C@@H]32)C1: -11%
COC(=O)c1cc(OC)c2c(c1-c1c(C(=O)OC)cc(OC)c3c1OCO3)OCO2: -5%
O=C(O)c1ccncc1: -17%
NCCCNCCSP(=O)(O)O: -6%
COc1ccc2c(=O)cc(-c3ccccc3)oc2c1: -27%
Cc1nc(-c2ccc(OCC(C)C)c(C#N)c2)sc1C(=O)O: -9%
OCC(S)CS (stereo not shown): 4%
C[S+](CCC(N)C(=O)[O-])C[C@H]1O[C@@H](n2cnc3c(N)ncnc32)[C@H](O)[C@@H]1O (mixture of isomers): -30%
CC1=C(CO)C(=O)O[C@@H]([C@@H](C)[C@H]2CC[C@H]3[C@@H]4C[C@H]5O[C@]56[C@@H](O)C=CC(=O)[C@]6(C)[C@H]4CC[C@]23C)C1: 4%
O=c1c(O[C@@H]2O[C@H](CO[C@@H]3O[C@H](CO)[C@@H](O)[C@H](O)[C@H]3O)[C@@H](O)[C@H](O)[C@H]2O)c(-c2ccc(O)c(O)c2)oc2cc(O)cc(O)c12: 40%
COc1cc2c(cc1Cc1cccc(Cl)c1F)c(=O)c(C(=O)O)cn2[C@H](CO)C(C)C: 1%

Sample 2 — organism: Sarcocystis neurona; read-out: parasite activity; concentration: 10 µM; time: 96 h; measurement: activity class
CCOC(=O)CCC(=O)O[C@H]1[C@H](O[C@@H]2[C@@H](C)[C@H](O[C@H]3C[C@@](C)(OC)[C@@H](O)[C@H](C)O3)[C@@H](C)C(=O)O[C@H](CC)[C@@](C)(O)[C@H](O)[C@@H](C)C(=O)[C@H](C)C[C@@]2(C)O)O[C@H](C)C[C@@H]1N(C)C: inactive
COc1ccccc1N1CCN(CC(O)COc2cccc3ccccc23)CC1 (stereo not shown): inactive
C[C@H]1[C@H](OC(=O)CCC(=O)O)O[C@@H]2O[C@@]3(C)CC[C@H]4[C@H](C)CC[C@@H]1[C@@]24OO3: active
Nc1ccn([C@H]2CC[C@@H](CO)O2)c(=O)n1: inactive
OCCN1CCN(CCCN2c3ccccc3Sc3ccc(Cl)cc32)CC1: active
CCOC(=O)[C@H](CCc1ccccc1)N[C@@H](C)C(=O)N1[C@H](C(=O)O)C[C@@H]2CCC[C@@H]21: inactive
CCC(=O)O[C@]1(C(=O)SCF)[C@H](C)C[C@H]2[C@@H]3C[C@H](F)C4=CC(=O)C=C[C@]4(C)[C@@]3(F)[C@@H](O)C[C@@]21C: inactive
COC(=O)C1=C(C)NC(C)=C(C(=O)OC)C1c1ccccc1[N+](=O)[O-]: inactive
Cc1onc(-c2c(Cl)cccc2Cl)c1C(=O)N[C@@H]1C(=O)N2[C@@H]1SC(C)(C)[C@@H]2C(=O)O: inactive
O=C(C1CCCCC1)N1CC(=O)N2CCc3ccccc3C2C1 (stereo not shown): inactive
C[C@@H]1CN(CCCn2c3ccccc3c3ccccc32)C[C@H](C)N1: inactive

Sample 3 — method: CellTiter-Glo; concentration: 1 µM; baseline: DMSO; measurement: viability
Cell line: normal-adjacent epithelium patient-derived organoids sample G
COCc1nc2cnc3cc(-c4c(C)noc4C)c(OC[C@H]4CCNC4)cc3c2n1[C@H](C)c1ccccc1: 68.6%
O=C(Nc1cccnn1)N1CC(CC=Cc2cncc(Oc3ccc(C(F)(F)F)cn3)n2)C1: 114%
CCOc1cn(-c2ccc(F)cc2C)nc1C(=O)Nc1ccc(Oc2ccnc3cc(OC)c(OC)cc23)c(F)c1: 13.4% and 28%
Cn1cc(-c2ccc3occ(-c4cccc(-c5ccncc5)c4)c3n2)cn1: 119%
CCC(=NO)C(C)=Cc1ccc(F)c(C)c1: 113% and 122%
COc1ccc2c(O[C@@H]3C[C@H]4C(=O)N[C@]5(C(=O)O)CC5/C=C\CCCCC[C@H](NC(=O)OC5CCCC5)C(=O)N4C3)cc(-c3csc(NC(=O)C(C)C)n3)nc2c1C (stereo partly shown): 113% and 107%
COc1cc(Nc2nccc(-c3cnn4nc(OC)ccc34)n2)cc(C(F)(F)F)c1: 60.3%
Cc1ncc(-c2cc(Cl)ccc2F)cc1-n1c(=O)n(CC(N)=O)c2ccccc21: 105% and 108%
CN1CCN(Cc2cc(NC(=O)c3ccc4c(c3)CN(c3ccccc3)CC4)cc(C(F)(F)F)c2)CC1: 85% and 79.3%
CCCCNc1ncc(-c2ccc(CN3CCOCC3)cn2)c(NC2CCC(O)CC2)n1 (stereo not shown): 94.5% and 110%
O=C(NCc1ccccc1)c1ccc(S(=O)(=O)NCc2ccccc2)cc1: 93.1% and 78.9%
COc1cccc(NC(=O)c2nc3scc(CN(C)Cc4ccccc4)c3c(=O)[nH]2)c1: 148% and 123%
Cc1ccc(NC(=O)Nc2cc(C(F)(F)F)ccc2F)cc1Nc1ccc2c(c1)NC(=O)/C2=C\c1ccc[nH]1: 135%
CCNC(=O)c1cc2c(N3CCOC[C@H]3C)ccnc2n1C: 126% and 111%
COc1cccc2c1C(=O)c1c(O)c3c(c(O)c1C2=O)C[C@@](O)(C(=O)CO)C[C@@H]3O[C@H]1C[C@H](N)[C@H](O)[C@H](C)O1: 2.6%

Sample 4 — read-out: enzyme activity; mode: inhibitor; concentration: 0.5 µM; baseline: control; measurement: remaining activity
Target: Serine/threonine-protein kinase pim-3 (PIM3, Homo sapiens, UniProt Q86V86)
COc1ccc2c(c1)c(C1=C(c3c[nH]c4ccccc34)C(=O)NC1=O)cn2CCCN(C)C: 5.01%
COc1ccc(COc2ccc(Cc3cnc(N)nc3N)cc2OC)cc1: 95.9%
O=Nc1c(-c2c(O)[nH]c3cc(Br)ccc23)[nH]c2ccccc12: 73.2%
CN(C)S(=O)(=O)c1ccc2c(c1)/C(=C/c1cc3c([nH]1)CCCC3)C(=O)N2: 117%
Oc1cccc(-c2nc(N3CCOCC3)c3oc4ncccc4c3n2)c1: 104%
O=C1NC(=O)c2c1c1c3ccccc3[nH]c1n1cncc21: 4.48%
Cc1ccc(S(=O)(=O)/C=C/C#N)cc1: 93.6%
O=C1Cc2c([nH]c3ccc(Br)cc23)-c2ccccc2N1: 84.6%
COc1cccc(-c2cc(=O)c3ccccc3o2)c1N: 90.9%
O=C1Nc2ccc(Br)cc2/C1=C/c1cc2c([nH]1)CCCC2: 87.5%
O=C1NC(=O)c2c1c1c3ccccc3[nH]c1c1[nH]c3cc(Br)ccc3c21: 4.69%
O=C1Nc2ccccc2/C1=C\c1c(Cl)[nH]c2ccccc12: 100%
CN1CCN(c2ccc3nc(-c4c(N)c5c(F)cccc5[nH]c4=O)[nH]c3c2)CC1: 95.6%
c1ccc(-c2n[nH]c3c2oc2ccccc23)cc1: 117%
Cc1cc(Nc2cc(N3CCN(C)CC3)nc(Sc3ccc(NC(=O)C4CC4)cc3)n2)[nH]n1: 101%
O=c1cc(N2CCOCC2)oc2c(-c3ccccc3)cccc12: 88.5%
CCCCc1c(-c2ccc(OC)cc2)[nH]c2nccnc12: 90.9%
CCCNC(=O)Nc1ccc(Oc2ncnc3cc(OC)c(OC)cc23)cc1Cl: 81.3%
c1ccc2c(-c3ccncc3)c[nH]c2c1: 103%
N#Cc1cnc2cnc(NCc3cccnc3)cc2c1Nc1ccc(F)c(Cl)c1: 85%
